Measured values collected from several papers.
A part holds a random share of what one study measured.

Study 1 — method: competition protein-binding microarray; form: double-stranded DNA, one strand shown; matrix: in vitro; concentration: 2 µM; together with: Pho4 competitor, 0.05 µM; reading: higher = stronger binding; all sequences stand within: … GTCTTGATTCGCTTGACGCTGCTG
Target: Centromere-binding protein 1, full length, His-tagged (CBF1, Saccharomyces cerevisiae, UniProt P17106, residues 1-351)
Sequence of UniProt P17106 (whole entry, looked up): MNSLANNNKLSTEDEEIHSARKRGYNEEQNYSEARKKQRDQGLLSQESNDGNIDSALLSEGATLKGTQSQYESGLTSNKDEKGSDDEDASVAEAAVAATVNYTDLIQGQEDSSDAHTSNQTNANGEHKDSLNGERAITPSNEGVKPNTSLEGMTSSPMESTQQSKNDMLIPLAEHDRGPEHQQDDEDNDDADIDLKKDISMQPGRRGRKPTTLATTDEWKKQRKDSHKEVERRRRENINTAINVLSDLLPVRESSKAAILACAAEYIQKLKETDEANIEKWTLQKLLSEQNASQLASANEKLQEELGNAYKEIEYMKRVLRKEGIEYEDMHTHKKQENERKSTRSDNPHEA
Setting: whole 60-bp probe, lowest competitor level
Sequence | fluorescence intensity
TAAGGTACTATCTTTGACGTGGCAATGCGGGATATT | 83.1 a.u.
CTAACGAAGGTTTGACTCGTGGGTGACAAGCCAAGT | 81.5 a.u.
CGAATCAGGTTTCCCAACGTGTGGACCTCCTTCTCA | 70 a.u.
CTTCTGTAAATTTATCACGTGTTTTGACGCGCCCCG | 4520 a.u.
CTTCTGTAAATTTTTCACGTGCACTGACGCGCCCCG | 1040 a.u.
GCACCATATTTTAGTTCCGTGATGGTCAAGAATTTT | 129 a.u.
CGGGGTTAAGTTTTTCACGTGAACTGCTTGCAGCAG | 806 a.u.
CGTCCTAGTGATTGTCACGTGGGTGCCATGAGGAAG | 4200 a.u.
GGGACTAGGGGATTGCATGTGCGGGGCAGGGGCACT | 138 a.u.
TGTTACACATCGACATACGTGCTTTCATAGAAAGAG | 84.4 a.u.
TCCAAAATTGACTCGCATGTGGTGTTGTCATTTTCT | 108 a.u.
TAAGATTCGCTCAAACACATGCTCTTTCCAACGCTG | 106 a.u.
CTTCTGTAAATTTGATAGGTGGGTGGACGCGCCCCG | 92 a.u.
CTTCTGTAAATTTGATTAGTGGGTGGACGCGCCCCG | 79 a.u.
TTTGAAAAAACCCATCACGCAGTGGCCGATGTAATT | 99.3 a.u.
AAATTACTAAGTTGCTCGGTGGGTGACGCCGTATGA | 59.4 a.u.

Study 2 — method: protein-binding microarray; form: double-stranded DNA, one strand shown; matrix: in vitro; concentration: 2540 nM top; setting: 60-bp whole probe; together with: salmon DNA 0.4 mg/ml; baseline: random background probes; reading: higher = stronger binding; all sequences stand within: GCCTAGCAC … GTCTTGATTCGCTTGACGCTGCTG
Target: Interferon regulatory factor 3, full length, phosphomimetic (IRF3, Homo sapiens, UniProt Q14653, residues 1-427, S386D/S396D/S398D/S402D/T404D/S405D)
Residues (chain): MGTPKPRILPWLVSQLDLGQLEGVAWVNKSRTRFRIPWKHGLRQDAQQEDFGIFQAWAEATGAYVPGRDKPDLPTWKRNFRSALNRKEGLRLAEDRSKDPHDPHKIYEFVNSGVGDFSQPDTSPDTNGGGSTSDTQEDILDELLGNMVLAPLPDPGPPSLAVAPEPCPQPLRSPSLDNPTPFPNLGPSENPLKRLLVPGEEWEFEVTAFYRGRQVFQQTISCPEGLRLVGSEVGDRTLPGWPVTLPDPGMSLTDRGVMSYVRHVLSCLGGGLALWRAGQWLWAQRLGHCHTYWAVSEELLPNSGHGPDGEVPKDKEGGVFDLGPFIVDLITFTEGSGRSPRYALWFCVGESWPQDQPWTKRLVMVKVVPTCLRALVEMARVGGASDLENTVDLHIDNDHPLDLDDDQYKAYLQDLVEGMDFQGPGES
Sequence | fitted relative affinity [z-score]
AACGATTTCGGGTTTCGAGACGTGCTA | 2.54
TTAGAAATGAGTCTCGATTAGTGCTAG | -0.201
GTAGATATCAGTATCGATTAGTGCTAG | 2.03
TTAGGACTGGGAGTGGGTTAGTGCTAG | -0.867
TTAGGACTGGGCATCGGTTAGTGCTAG | -1.04
TCACACATGCATCTCCCACTGTGCTAG | -0.000142
TTGGGTCTCGGTCTCGGTTAGTGCTAG | 0.419
TCAACTCTTTCTGTCAGACTGTGCTAG | 0.96
TTAGAACTGGGACTGGGTTAGTGCTAG | -0.922
TTAGGTTGCGGGTATCGGTTAGTGCTA | 2.21
GACGGACTCCTACTGCTGACGTGCTAG | -0.0153
TTAGGTTCCCTTTTACTTTAGTGCTAG | 7.63
GACGGTATCGGGTATCGGAACGTGCTA | 2.74
GACGAACTGAGTCTCGAGTCGTGCTAG | -0.218
GACGAACCGGGGTATCGAGACGTGCTA | -0.425
TTACGTATCGGTATCGGTTAGTGCTAG | 5.34
TTAGGTATCGGTATCGATTAGTGCTAG | 4.93
ATAGGTATCGGACTGGGTTAGTGCTAG | 1.12
TTAGGTCTCCTTATCCTTTAGTGCTAG | 2.87
CCCTGTGTCCACAGCTGGATGTGCTAG | 0.153
GACGGTTTCGGGGATCGGGACGTGCTA | 3
GACGGTTTCCTTCCCCTGACGTGCTAG | 5.99
GACGGACTGGGTTTTGGGACGTGCTAG | -0.508
TCATGAATGCCCTTCCATACTGTGCTA | -0.0434
TTAGGTTTCGGGCTCGGTTAGTGCTAG | 3.28

Study 3 — method: RNA Bind-n-Seq; form: RNA; matrix: in vitro; concentration: 365 nM; baseline: no-protein control; reading: higher = stronger binding
Target: RNA binding protein fox-1 homolog 2, RRM domain, GST-SBP tag (RBFOX2, Homo sapiens, UniProt O43251-10, residues 100-194)
Setting: natural RNA segment, single round, ends assumed
All sequences stand within: GGGAGUUCUACAGUCCGACGAUC … UGGAAUUCUCGGGUGCCAA
Target sequence (chain): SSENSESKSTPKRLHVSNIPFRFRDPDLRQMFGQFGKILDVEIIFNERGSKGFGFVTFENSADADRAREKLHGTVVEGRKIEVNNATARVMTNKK
Sequence | RBNS enrichment (R)
GGCAGUCCCAAACACCAGAGUCUGUACUUUUCUAUGACACAGCUCAAAUUAAAGUAGGGCACAUGCCAAGGAGGUUCUCACCUCCCUAAAGAAGGGACUUGAAUUUUAGG | 0.327
UAUACACUUAAUGUUGUUAUUGUAUGUUGUUACUGAAGUACUUAGAUUUUUAAAAUUUCAAAUCCUAAAUCACUUCUUGUAGGAGGGUUUUCAUUAACUGCAGUAUAUAC | 0.688
ACUGAGCUCUGUGCUUUCAUUCCUAGAGAUGUUUCUCAUUCCCAUUUAGUGAAAUGCUGUUGCCCCAAAGUGAUGGUUGUGGGAUUUCUUACCGGUCAUAGGCCCCGGUG | 0.369
UGUUGGUAGCCCCCAAGUGGCGUGCAGUGACACCAGUAUCUUCUCUGUUGCAUUUUUGCAAUCUUGUGUCCCGCUCGGUGAUGUUCUACAAACUCUGUUUUAAGGUUGAG | 0.227
UCUCCGCCUGCCCUCUUCCCCUUGUUUCCUUGGGUGAGUGUGGGGGGCAGCCUGCUGUCCCUCCCACCUGCACAGUGAUGCUGUCUGGUGGGGCCUCGUGGUGCCUAGGA | 0.189
AUAUAUACCUUGGAGUCCCAUACACUUAGGAAACUCCAAGGAGACACGUCCUGCUCAUCCCCGCCCCCACCCAAAGUAAAAACACAAUACUGAAUAAACGUGGCUUGAGU | 0.347
GGUGGGGCCUCGUGGUGCCUAGGAGAUGAAGAUGAGGUUUUCCUUACCGUGUAAAUGAAUAUUUGUAUGAUUAAAUUAACACACACAAAAAAAAAAACCCCGCCUUUAUC | 0.687
UGCAACUGCUGGGCUUGCCUUCUGUUAGUGUGGUAGUACAUGACAGAGGCAUUAGACUAUUUUUUAGCUGCCCUCAUAAAUAUAUAACGAAUAGGUAAAUGCCAAUACCC | 0.935
GUGUUAUCCUCUAAGUGUGAUAAACUGUGCUUUACCGCUCCGAACACUCAGGACUCCGUGUGUAUCAGUGUGGGCUCCUCAGUAAGGAAGAGGAGCUCAAAGUUUGUGUG | 0.75
GUUGGAUAUUCAAUAUUAUGAAUAUUAAAAAGGGGGCAAUAAAAGGGUAUGUAAAAUAUGUAUGAAGAAAAGGUGUAUAAAAAUUUGCCCUUAUGCACGGAACUGUUUCU | 2.27
ACACUCGUCUUGCCUAGGAAGUGCAAUCUCCUUGUGACUGGAGCACACUGGCAGCCUUCAGGUGUCAUAAUCAUACAUCCCAGAGAAGAGCAGUCACCUGCUGUCACUAG | 0.398
UAGUUAGUUGCCUUUGAUAGAAUUCCUUGCACCUGCCAUUGUUGGUUUGAUGAACACGAUUAGGUACCCAGUGUGAUCCCACCCUCACCCCACCUCACCCAGAGCAAACC | 0.69

Study 4 — method: universal PBM; form: double-stranded DNA, one strand shown; matrix: in vitro; concentration: 600 nM; reading: higher = stronger binding
Target: Sal-like protein 4, full length isoform A (SALL4, Homo sapiens, UniProt Q9UJQ4, residues 1-1053)
Sequence of UniProt Q9UJQ4 (whole entry, looked up): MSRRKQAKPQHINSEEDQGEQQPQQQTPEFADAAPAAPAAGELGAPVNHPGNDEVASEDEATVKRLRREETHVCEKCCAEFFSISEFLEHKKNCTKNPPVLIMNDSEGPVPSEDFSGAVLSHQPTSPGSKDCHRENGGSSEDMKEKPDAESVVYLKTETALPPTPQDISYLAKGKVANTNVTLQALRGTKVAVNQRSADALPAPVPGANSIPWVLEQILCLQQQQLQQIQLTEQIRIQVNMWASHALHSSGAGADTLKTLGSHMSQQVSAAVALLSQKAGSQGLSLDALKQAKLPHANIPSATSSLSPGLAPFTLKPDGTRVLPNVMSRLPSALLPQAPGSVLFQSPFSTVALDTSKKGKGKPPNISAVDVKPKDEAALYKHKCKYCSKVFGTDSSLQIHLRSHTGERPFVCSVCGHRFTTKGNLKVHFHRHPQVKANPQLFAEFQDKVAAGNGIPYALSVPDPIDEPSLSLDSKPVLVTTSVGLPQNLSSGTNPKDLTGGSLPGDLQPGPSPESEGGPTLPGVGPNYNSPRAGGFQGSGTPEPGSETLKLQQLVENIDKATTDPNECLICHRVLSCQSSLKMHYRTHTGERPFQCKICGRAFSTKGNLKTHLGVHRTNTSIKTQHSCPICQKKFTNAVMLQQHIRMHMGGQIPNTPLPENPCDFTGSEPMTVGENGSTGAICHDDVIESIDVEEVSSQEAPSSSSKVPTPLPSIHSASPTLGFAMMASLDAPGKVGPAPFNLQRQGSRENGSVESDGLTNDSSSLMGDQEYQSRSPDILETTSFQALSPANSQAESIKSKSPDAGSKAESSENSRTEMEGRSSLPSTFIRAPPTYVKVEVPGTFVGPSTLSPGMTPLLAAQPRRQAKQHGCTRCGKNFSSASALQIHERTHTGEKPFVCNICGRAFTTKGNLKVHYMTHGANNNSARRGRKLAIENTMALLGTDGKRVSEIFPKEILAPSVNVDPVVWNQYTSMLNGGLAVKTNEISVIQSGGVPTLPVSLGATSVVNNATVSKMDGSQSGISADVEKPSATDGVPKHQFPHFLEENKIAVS
Setting: 8-mer, flanks averaged, mean of replicates
Sequence | E-score
CTGGACGA | -0.204
CAGGGCGA | -0.27
AACTCCGA | -0.0805
AGCACCCG | -0.322
CGTCAAGA | -0.0909
ACCGGGGA | -0.383
AAGCACTA | 0.0943
TGTCCGAA | 0.0731
ATCTTATG | 0.185
GCATGGAA | 0.000265
CAAAGTTA | 0.176
AAGAGGCG | -0.169
ACTGTAAG | 0.144
AAGTCCAG | 0.0407
GCGTGAGC | -0.204
CAAGAGTC | -0.0195
CGTATCCC | -0.157
ACTGCGTC | -0.0849
GCTAGAAC | -0.118
AGCGCCTA | -0.0846
CATGTAGC | -0.00475
AGTCCTTA | 0.0787
CAATTTCC | 0.0315

Study 5 — method: protein binding microarray; form: double-stranded DNA, one strand shown; matrix: in vitro; concentration: not given; baseline: not given; reading: higher = stronger binding
Target: Histone acetyltransferase KAT6A, winged helix 2, GST fusion (KAT6A, Homo sapiens, UniProt Q92794, residues 85-181)
Setting: 8-mer, flanks averaged, mean of 2 arrays, mostly near background
Target sequence (chain): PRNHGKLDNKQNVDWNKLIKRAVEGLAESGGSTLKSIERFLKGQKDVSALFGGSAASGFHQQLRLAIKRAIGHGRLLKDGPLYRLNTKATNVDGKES
Sequence | E-score
GTGGGGCA | 0.104
AAATCTGT | -0.167
CAGACACC | 0.0879
CAACTGAA | -0.191
CCATGCCA | -0.0258
AGGCCCTC | -0.114
CGGCCTTC | 0.172
GCAGCCAA | 0.0683
AAATACTC | -0.0523
AGATATAC | -0.102
CGTGGGAG | 0.171
GGACTGCC | -0.0654
GCCTTGAC | 0.0419
ACCCGTTA | -0.0236
CCACGGTC | -0.16
GCCCGGCC | 0.187
GAGAACAA | 0.162
TGTCTGAA | -0.0138
TATAGTAA | -0.0208

For quick reference, copied from above (study 5):
Sequence | E-score
CCATGCCA | -0.0258
AGGCCCTC | -0.114
CGGCCTTC | 0.172
GCAGCCAA | 0.0683
AAATACTC | -0.0523
AGATATAC | -0.102
CGTGGGAG | 0.171
GGACTGCC | -0.0654
GCCTTGAC | 0.0419
ACCCGTTA | -0.0236
